Assay results from different studies.
Compare with care: the assays were run in different laboratories. Several values in a cell are separate wells, animals, samples, runs or records. ± gives the spread as reported.

CC(C)[C@H](NC(=O)[C@@H]1CCCN1C(=O)[C@H](CCCNC(=N)N)NC(=O)[C@H](CS)NC(=O)[C@H](Cc1c[nH]c2ccccc12)NC(=O)[C@H](CCCNC(=N)N)NC(=O)[C@@H](Cc1ccccc1)NC(=O)[C@H](Cc1c[nH]cn1)NC(=O)[C@H](CCC(=O)O)NC(=O)[C@H](CS)NC(=O)[C@H](CS)NC(=O)[C@@H]1CC(=O)N[C@@H](CCCNC(=N)N)C(=O)NCC(=O)N[C@@H](CC(=O)O)C(=O)N[C@H](Cc2ccc(O)cc2)C(=O)N1)C(N)=O [technetium-99m labelled]
tissue uptake (female mice, B16/F1 melanoma, intestines; intravenous, dose not given, 2 h, with: 10 µg NDP-MSH co-injected): 3.86 ± 0.84 %ID

O=C(NCC1OC2CCC=CCCC2O1)c1ccc(COCCOCCOCC[18F])cc1 (stereo not shown)
tissue uptake (female BALB/c nude mice, kidneys; intravenous, 15 min): 11.9 ± 0.7 %ID/g

CCCC[C@H](NC(=O)CN1CCC(NC(=O)CN2CCN(CC(=O)O)CCN(CC(=O)O)CCN(CC(=O)O)CC2)CC1)C(=O)N[C@H]1CC(=O)NCCCC[C@@H](C(N)=O)NC(=O)[C@H](Cc2c[nH]c3ccccc23)NC(=O)[C@H](CCCNC(=N)N)NC(=O)[C@@H](Cc2ccccc2)NC(=O)[C@H](Cc2c[nH]cn2)NC1=O [gallium-68 labelled]
tissue uptake (C57BL/6J mice male B16-F10 tumour, blood; 1 h post injection, unblocked): 0.9 ± 0.5 %ID/g

O=C([O-])c1cccc(CN(CCN(Cc2cn(Cc3ccccc3)nn2)Cc2cccc(C(=O)[O-])n2)Cc2cn(Cc3ccccc3)nn2)n1.[64Cu+2]
tissue uptake (healthy athymic nude mice, large intestine; intravenous, 15 min): 1.28 %ID/g

CCCC[C@@H]1NC(=O)[C@@H](NC(=O)[C@H](CCC(=O)O)NC(=O)CNC(=O)CN2CCN(CC(=O)O)CCN(CC(=O)O)CCN(CC(=O)O)CC2)CCCCNC(=O)C[C@@H](C(N)=O)NC(=O)[C@H](C(C)C)NC(=O)[C@@H]2CCCN2C(=O)[C@H](CCCNC(=N)N)NC(=O)CNC(=O)[C@H](Cc2c[nH]c3ccccc23)NC(=O)[C@H](CCCNC(=N)N)NC(=O)[C@@H](Cc2ccccc2)NC(=O)[C@H](Cc2c[nH]cn2)NC(=O)[C@H](CCC(=O)O)NC1=O [gallium-67 labelled]
tissue uptake (normal C57 mice, heart; intravenous, 0.037 MBq, 4 h): 0.24 ± 0.07 %ID/g

N=C(N)NCCC[C@@H]1NC(=O)[C@H](CCCCNC(=O)CON=C[C@H](F)[C@@H](O)[C@H](O)[C@H](O)CO)NC(=O)[C@@H](Cc2ccc(O)cc2)NC(=O)[C@H](CC(=O)O)NC(=O)CNC1=O [fluorine-18 labelled]
tissue uptake (nude mice U-87 MG tumour, blood; intravenous, 2 h): 0.54 ± 0.31 %ID/g

O=C([O-])CN1CCN(CC(=O)[O-])CCN(CC(=O)[O-])CCN(CC(=O)[O-])CC1.[64Cu+2]
tissue uptake (healthy athymic nude mice, heart; intravenous, 24 h): 0.52 %ID/g

CC(C)[C@H](NC(=O)[C@@H]1CCCN1C(=O)[C@H](CCCNC(=N)N)NC(=O)[C@H](CS)NC(=O)[C@H](Cc1c[nH]c2ccccc12)NC(=O)[C@H](CCCNC(=N)N)NC(=O)[C@@H](Cc1ccccc1)NC(=O)[C@H](Cc1c[nH]cn1)NC(=O)[C@H](CCC(=O)O)NC(=O)[C@H](CS)NC(=O)[C@H](CS)NC(=O)CNC(=O)[C@@H]1CC(=O)N[C@@H](CCCNC(=N)N)C(=O)NCC(=O)N[C@@H](CC(=O)O)C(=O)N[C@H](Cc2ccc(O)cc2)C(=O)N1)C(N)=O [technetium-99m labelled]
tissue uptake (C57 mice B16/F1 melanoma female, muscle; iv, 2 h, with: NDP-MSH 10 µg co-injected): 0.43 ± 0.29 %ID/g

NC12CNCCNCC(NCc3ccc(CNC(=O)CCCC(=O)NCc4ccc(-c5nncnn5)cc4)cc3)(CNCCNC1)CNCCNC2.[64Cu+2]
tissue uptake (athymic nude mice SW1222 xenograft, kidney; 12 h post injection, 24 h accumulation interval, with: huA33-TCO pretargeting): 1.9 %ID/g and 1.87 %ID/g

CCCC[C@H](NC(=O)CNC(=O)CNC(=O)CN1CCN(CC(=O)O)CCN(CC(=O)O)CCN(CC(=O)O)CC1)C(=O)N[C@H]1CC(=O)NCCCC[C@@H](C(N)=O)NC(=O)[C@H](Cc2c[nH]c3ccccc23)NC(=O)[C@H](CCCNC(=N)N)NC(=O)[C@@H](Cc2ccccc2)NC(=O)[C@H](Cc2c[nH]cn2)NC1=O [gallium-67 labelled]
tissue uptake (female C57 mice, B16/F1 melanoma, stomach; intravenous, 0.037 MBq, 0.5 h): 2.51 ± 0.5 %ID/g

CN1C(=O)[C@@H](Cc2ccc(O)c(I)c2)NC(=O)CNC(=O)[C@H](Cc2ccc3ccccc3c2)NC(=O)[C@H](CCCNC(=N)N)NC(=O)[C@H]1CCCNC(=O)c1ccc(CNC(=O)CN2CCN(CC(=O)O)CCN(CC(=O)O)CCN(CC(=O)O)CC2)cc1 [lutetium-177 labelled]
tissue uptake (item: 177Lu radioactivity; female CB-17 SCID mice, Daudi xenograft, muscle; intravenous, 0.16 nmol per mouse, 1 h): 0.3 ± 0.1 %ID/g

O=C([O-])CN1CCN(CC(=O)[O-])CCN(CC(=O)NCCc2ccc3c(c2)C2C=CCC2C(c2cc4c(cc2Br)OCO4)N3)CCN(CC(=O)[O-])CC1.[111In+3] (stereo not shown)
tissue uptake (mice with Hec50 tumour xenograft, blood; 2 h, with: G-1 5 µg blocking): 1.11 ± 0.17 %ID/g

CCCC[C@H](NC(=O)CNC(=O)CNC(=O)CN1CCN(CC(=O)O)CCN(CC(=O)O)CC1)C(=O)N[C@H]1CC(=O)NCCCC[C@@H](C(N)=O)NC(=O)[C@H](Cc2c[nH]c3ccccc23)NC(=O)[C@H](CCCNC(=N)N)NC(=O)[C@@H](Cc2ccccc2)NC(=O)[C@H](Cc2c[nH]cn2)NC1=O [gallium-67 labelled]
tissue uptake (female C57 mice, B16/F1 melanoma, lung; intravenous, 0.037 MBq, 24 h): 0.35 ± 0.08 %ID/g

Excerpt of the above:
O=C(NCC1OC2CCC=CCCC2O1)c1ccc(COCCOCCOCC[18F])cc1 (stereo not shown)
tissue uptake (female BALB/c nude mice, kidneys; intravenous, 15 min): 11.9 ± 0.7 %ID/g

CCCC[C@H](NC(=O)CN1CCC(NC(=O)CN2CCN(CC(=O)O)CCN(CC(=O)O)CCN(CC(=O)O)CC2)CC1)C(=O)N[C@H]1CC(=O)NCCCC[C@@H](C(N)=O)NC(=O)[C@H](Cc2c[nH]c3ccccc23)NC(=O)[C@H](CCCNC(=N)N)NC(=O)[C@@H](Cc2ccccc2)NC(=O)[C@H](Cc2c[nH]cn2)NC1=O [gallium-68 labelled]
tissue uptake (C57BL/6J mice male B16-F10 tumour, blood; 1 h post injection, unblocked): 0.9 ± 0.5 %ID/g
